Experimental data of several laboratories.
Each line is one published result; not all experiments were run side by side. Values joined by “and” are separate records of one study, mostly repeats; a detail may differ. ± marks the error that the study gave. In brackets after ≈: the same amount, converted by molar mass.

`CCN(Cc1ccccc1)C(=O)CCc1nc(CN2CCN(C(=O)Cc3ccc(OC)c(OC)c3)CC2)no1` — result for “beam crossing time”: 6.95 ± 0.27 s (beam walking test; mouse, CCI neuropathic pain model; 5 mg/kg).
With `CC[C@H](C)[C@H](NC(=O)[C@H](CCCNC(=N)N)NC(=O)[C@H](CO)NC(=O)[C@H](Cc1ccc(O)cc1)NC(=O)[C@@H](NC(=O)[C@@H](NC(=O)[C@H](C)NC(=O)CNC(=O)[C@H](CCCCN)NC(=O)[C@H](CCCCN)NC(=O)CCNC(=O)CCCCCNC(=O)[C@H](CCCNC(=N)N)NC(=O)CCCCCNC(=O)[C@H](CCCNC(=N)N)NC(=O)[C@H](CCCNC(=N)N)NC(=O)CCCCCNC(=O)[C@H](CCCNC(=N)N)NC(=O)[C@H](CCCNC(=N)N)NC(=O)CCCCCNC(=O)[C@H](CCCNC(=N)N)NC(=O)[C@H](CCCNC(=N)N)NC(=O)CCCCCNC(=O)[C@@H](N)CCCNC(=N)N)C(C)C)[C@@H](C)O)C(=O)N[C@@H](CO)C(=O)NCC(=O)N[C@@H](CCC(N)=O)C(=O)N[C@@H](Cc1ccc(O)cc1)C(=O)N[C@@H](CCCCN)C(=O)O` the MIC was 12 µM (≈ 42.9 µg/mL) (broth microdilution; BAA-2469, NDM-1 producing, Mueller-Hinton broth).
`O=C(O)c1ccc(-c2nc(-c3ccccc3Cl)c3sccn23)cc1` has a platelet recovery of 379% and 392% and 208% and 326% (C57BL/6 mice, 5-fluorouracil treated; oral, 100 mg/kg daily, day 11).
For `CC[C@H](C)[C@H](NC(=O)[C@H](CC(C)C)NC(=O)[C@H](CC(=O)O)NC(=O)[C@H](CCCNC(=N)N)NC(=O)[C@H](Cc1c[nH]c2ccccc12)NC(=O)[C@@H](N)CC(C)C)C(=O)N[C@@H](CS)C(=O)N[C@@H](CC(C)C)C(=O)N[C@@H](CS)C(=O)N[C@@H](CCCNC(=N)N)C(=O)N[C@@H](CC(N)=O)C(=O)N[C@@H](CCCNC(=N)N)C(=O)N[C@@H](CCCNC(=N)N)C(=O)N[C@@H](CS)C(=O)N[C@@H](CC(N)=O)C(=O)N[C@@H](CCCNC(=N)N)C(=O)NCC(=O)N[C@@H](CCC(N)=O)C(=O)N[C@@H](CC(C)C)C(=O)N[C@@H](Cc1ccccc1)C(=O)N1CCC[C@H]1C(=O)NCC(=O)N[C@@H](Cc1c[nH]c2ccccc12)C(=O)N[C@@H](CS)C(=O)N1CCC[C@H]1C(=O)NCC(=O)N[C@@H](Cc1c[nH]c2ccccc12)C(=O)N[C@@H](Cc1c[nH]c2ccccc12)C(=O)N[C@@H](CC(C)C)C(=O)N[C@@H](CCCNC(=N)N)C(=O)N[C@@H](CS)C(=O)N[C@@H](CS)C(=O)N[C@@H](CCCNC(=N)N)C(=O)N[C@@H](CCCNC(=N)N)C(N)=O`, “colon MPO level” read “decreased” (C57BL/6J mice, DSS colitis; 5 mg/kg, 7 days; relative to: DSS model).
The ED50 of `COC(=O)[C@@H](NC(=O)c1nn(Cc2ccc(F)cc2)c2cc(OCCCCNC(=N)N)ccc12)C(C)(C)C` is reported as 0.22 mg/kg (reversal of mechanical allodynia; mouse, spared nerve injury model; intraperitoneal).
`COc1ccccc1-c1n[nH]c2nc(N[C@H]3CC[C@H](NS(=O)(=O)CC(C)C)CC3)ncc12` has a relative abundance of 0.58 (bead binding, competition bead pull-down, item: LINJ.27.0100; Leishmania donovani extract; 10 µM; relative to: vehicle).
`Cc1ccc(S(=O)(=O)N2CC2C(=O)N(C)C)cc1` (stereo not drawn): “tumour growth inhibition” 38% (mouse, Lewis lung carcinoma; intraperitoneal, 170 mg/kg, 16 doses, day 15).
With `COc1ccccc1-c1n[nH]c2nc(NC3CCN(C(=O)Cc4ccc(F)cc4F)CC3)ncc12` the relative abundance was 0.91 (bead binding, competition bead pull-down, item: LINJ.36.4870; Leishmania donovani axenic amastigote extract; 10 µM; relative to: vehicle).
The IC50 of `Cc1cc(O)cc(C)c1C[C@H](N)C(=O)N[C@H](CCCNC(=N)N)C(=O)N[C@@H](Cc1ccccc1)C(=O)N[C@@H](CCCCN)C(=O)NNC(=O)[C@H](Cc1ccccc1)NC(=O)[C@H](CC1CCCCC1)NC[C@@H]1Cc2ccccc2CN1C(=O)[C@@H](N)Cc1ccc(O)cc1` is reported as 0.47 ± 0.044 µM (agonist; guinea pig ileum).
Under “normalised enrichment score”, `CCCCCC1=C(NCC)C(=O)C(C/C=C(\C)CCC=C(C)C)=C(O)C1=O` is recorded as -1.72 (RNA-seq GSEA, item: HALLMARK_MYOGENESIS; mouse, A53T α-synuclein lesioned, striatum; dose not given; relative to: untreated A53T lesioned mice, direction not given).
Under “osteoblast surface/bone surface”, `CCc1nnc(-c2c(OC)cc(-c3cnc4cc(-c5cnn(C)c5)ccn34)cc2OC)o1` is recorded as 7.27 ± 0.9% (histomorphometry; male C57BL/6J mouse, tibia; oral gavage, 10 mg/kg once daily, 3 wk).
For `O=P(O)(O)Oc1c2c(c(OP(=O)(O)O)c3c1C1CC3c3cc4ccccc4cc31)C1CC2c2cc3ccccc3cc21`, the association constant was 166 ± 30 M⁻¹ (1H NMR titration, item: choline N-methyl signal; methanol-d4; added: sphingomyelin).
`CC(C)C[C@@H]1NC(=O)[C@@H](Cc2c[nH]c3ccccc23)NC(=O)[C@H](CCCNC(=N)N)NC(=O)[C@@H](CCC(=O)O)NC(=O)[C@H](CCC(N)=O)NC(=O)[C@@H](CCC(=O)O)NC(=O)[C@H](CCCNC(=N)N)NC(=O)[C@@H](Cc2c[nH]c3ccccc23)NC1=O` has a cytokine level of 200 ± 78 pg/g tissue (Luminex, item: IL-12p40; LDLr-/- mice, Western diet, liver; dose not given, 4 weeks).
`CC[C@H](C)[C@H](NC(=O)[C@@H](NC(=O)c1cccc(Cl)c1Cl)C(C)(C)C)C(=O)N[C@H](C(=O)N[C@H](C(=O)N[C@H](C(=O)N[C@@H](CCC(N)=O)C(=O)N[C@@H](Cc1c[nH]cn1)C(=O)N[C@H](CC(C)C)C(=O)N[C@@H](CO)C(=O)NCCC(=O)N[C@@H](CCCCNC(=O)CC[C@@H]1NC(=O)[C@@H](CCCNC(=N)N)NC(=O)[C@H](CCCNC(=N)N)NC(=O)[C@@H](CCCNC(=N)N)NC(=O)[C@H](CCCNC(=N)N)NC(=O)[C@H](Cc2ccc3ccccc3c2)NC(=O)[C@@H](Cc2ccccc2)NC1=O)C(N)=O)[C@@H](C)O)[C@@H](C)CC)C(C)(C)C` — result for “BALF neutrophil count”: “decreased” (mouse, acute lung injury, LPS-induced; intranasal, 10 mg/kg, added: LPS 10 mg/kg i.p.; relative to: control peptide).
`Cc1ccc(C2=CC(C)(C)Oc3ccc(-c4ccc(-c5ccc(C(=O)O)cc5)[nH]4)cc32)cc1`: “tubules with recovered spermatogenesis” 92.5% and 85.8% and 79.6% and 82.3% and 97.9% (CD1 mouse, male, testis; 10 mg/kg/day, 4 weeks after treatment, dosed for 4 weeks).
`COC(=O)C1CN1S(=O)(=O)c1ccc(C)cc1` (stereo not drawn) — result for “tumour growth inhibition”: 58% (mouse Lewis lung carcinoma; intraperitoneal, 100 mg/kg, day 14).
The IC50 of `CSCC[C@H](NC(=O)[C@H](Cc1ccccc1)NC(=O)CNC(=O)CNC(=O)[C@@H](N)Cc1ccc(O)cc1)C(=O)O` is reported as 12.9 ± 3.5 µM ([3H]deltorphin II uptake, inhibitor; rabbit, cells; 15 min, NaCl-containing medium).
For `CCCC[C@@H]1NC(=O)[C@H](Cc2ccc(O)cc2)NC(=O)[C@@H]2CCCN2C(=O)[C@H](CC(=O)O)NC(=O)[C@H](C)NC(=O)[C@H](Cc2ccccc2)NC(=O)[C@@H]2CSCCC(=O)N3CN(CN(C3)C(=O)CCSC[C@@H](C(=O)N[C@@H](C)C(N)=O)NC1=O)C(=O)CCSC[C@H](NC(C)=O)C(=O)N[C@@H](CC(C)(C)C)C(=O)N1CCC[C@H]1C(=O)N[C@@H](CCC(=O)O)C(=O)N[C@H](CCCCNC(=O)CCc1cn(CCOCCOCCOCCN(CCOCCOCCOCCC(=O)N[C@H]3CSCCC(=O)N4CN5CN(C4)C(=O)CCSC[C@H](NC(=O)[C@@H](CC(=O)O)NC(=O)[C@H](Cc4cccc6ccccc46)NC(=O)[C@@H]4CCCN4C3=O)C(=O)N[C@@H](CCSC)C(=O)N[C@@H](CCCCNC(=N)N)C(=O)N[C@@H](CC(=O)O)C(=O)N[C@@H](Cc3c[nH]c4ccccc34)C(=O)N[C@@H](CO)C(=O)N[C@@H]([C@@H](C)O)C(=O)N3CCC[C@H]3C(=O)N3C[C@H](O)C[C@H]3C(=O)N[C@@H](Cc3c[nH]c4ccccc34)C(=O)N[C@H](C(N)=O)CSCCC5=O)CCOCCOCCOCCn3cc(CCC(=O)NCCCC[C@H]4NC(=O)[C@H](CCC(=O)O)NC(=O)[C@@H]5CCCN5C(=O)[C@H](CC(C)(C)C)NC(=O)[C@@H](NC(C)=O)CSCCC(=O)N5CN6CN(C5)C(=O)CCSC[C@H](NC(=O)[C@H](Cc5ccc(O)cc5)NC(=O)[C@@H]5CCCN5C4=O)C(=O)N[C@@H](Cc4ccccc4)C(=O)N[C@@H](C)C(=O)N[C@@H](CC(=O)O)C(=O)N4CCC[C@H]4C(=O)N[C@@H](Cc4ccc(O)cc4)C(=O)N[C@@H](CCCC)C(=O)N[C@H](C(=O)N[C@@H](C)C(N)=O)CSCCC6=O)nn3)nn1)C(=O)N1CCC[C@H]1C(=O)N[C@@H](Cc1ccc(O)cc1)C(=O)N2`, the mRNA level was 5.11 (NanoString, item: Il1rl2-mRNA; mouse bearing MC38-Nectin-4 tumour, circulating white blood cells; 5 mg/kg, 24 h after dosing, unit not given; relative to: vehicle).

Excerpt of the above:
`CCN(Cc1ccccc1)C(=O)CCc1nc(CN2CCN(C(=O)Cc3ccc(OC)c(OC)c3)CC2)no1` — result for “beam crossing time”: 6.95 ± 0.27 s (beam walking test; mouse, CCI neuropathic pain model; 5 mg/kg).
For `CC[C@H](C)[C@H](NC(=O)[C@H](CC(C)C)NC(=O)[C@H](CC(=O)O)NC(=O)[C@H](CCCNC(=N)N)NC(=O)[C@H](Cc1c[nH]c2ccccc12)NC(=O)[C@@H](N)CC(C)C)C(=O)N[C@@H](CS)C(=O)N[C@@H](CC(C)C)C(=O)N[C@@H](CS)C(=O)N[C@@H](CCCNC(=N)N)C(=O)N[C@@H](CC(N)=O)C(=O)N[C@@H](CCCNC(=N)N)C(=O)N[C@@H](CCCNC(=N)N)C(=O)N[C@@H](CS)C(=O)N[C@@H](CC(N)=O)C(=O)N[C@@H](CCCNC(=N)N)C(=O)NCC(=O)N[C@@H](CCC(N)=O)C(=O)N[C@@H](CC(C)C)C(=O)N[C@@H](Cc1ccccc1)C(=O)N1CCC[C@H]1C(=O)NCC(=O)N[C@@H](Cc1c[nH]c2ccccc12)C(=O)N[C@@H](CS)C(=O)N1CCC[C@H]1C(=O)NCC(=O)N[C@@H](Cc1c[nH]c2ccccc12)C(=O)N[C@@H](Cc1c[nH]c2ccccc12)C(=O)N[C@@H](CC(C)C)C(=O)N[C@@H](CCCNC(=N)N)C(=O)N[C@@H](CS)C(=O)N[C@@H](CS)C(=O)N[C@@H](CCCNC(=N)N)C(=O)N[C@@H](CCCNC(=N)N)C(N)=O`, “colon MPO level” read “decreased” (C57BL/6J mice, DSS colitis; 5 mg/kg, 7 days; relative to: DSS model).
